Assay results pooled from the literature.
Numbered parts are unrelated; each lists some results of a single study.

Sample 1 — technique: aptamer microarray, sandwich; molecule type: DNA with 2'F-ANA; sample: in vitro; tested at: 200 nM; added: Cy3 exosite-II aptamer, 400 nM; reading: higher = stronger binding; endpoint: mean fluorescence intensity; sequence: GGTTGGTGTGGTTGG
Target: Prothrombin, mature alpha-thrombin (F2, Homo sapiens, UniProt P00734)
Notes: whole 15-mer aptamer, many near background
2'F-ANA at 3 4 5 6 7 9 10 11 12 13: 51.1 a.u.
2'F-ANA at 7 8 10 11 12: 241 a.u.
2'F-ANA at 1 2 6 10 11 14: 57.9 a.u.
2'F-ANA at 5 8 10 15: 48.2 a.u.
2'F-ANA at 1 2 3 4 5 8 9 10 14 15: 47.2 a.u.
2'F-ANA at 1 2 3 4 6 8 9 11 14 15: 71.5 a.u.
2'F-ANA at 1 2 5 6 8 11 12: 88.5 a.u.
2'F-ANA at 2 3 7 8 10 11 12 14 15: 240 a.u.
2'F-ANA at 2 3 4 5 6 7 10 12 13 14 15: 79.8 a.u.
2'F-ANA at 1 6 10 13 14: 49 a.u.
2'F-ANA at 3 4 6 8 9 10 12 13 14 15: 148 a.u.
2'F-ANA at 1 3 4 5 12: 139 a.u.
2'F-ANA at 3 5 6 7 12: 292 a.u.
2'F-ANA at 3 6 7 10 12 13 14: 391 a.u.
2'F-ANA at 3 4 6 8 11 12 14: 341 a.u.
2'F-ANA at 3 4 7 9 13 15: 498 a.u.
2'F-ANA at 1 3 7 8 9 10 11 12 15: 110 a.u.
2'F-ANA at 1 2 3 4 7 13 14 15: 67.6 a.u.

Sample 2 — technique: competition protein-binding microarray; molecule type: double-stranded DNA, one strand shown; sample: in vitro; tested at: 2 µM; added: Cbf1 competitor, 0.05 µM; reading: higher = stronger binding; endpoint: fluorescence intensity; all sequences stand within: … GTCTTGATTCGCTTGACGCTGCTG
Target: Phosphate system positive regulatory protein PHO4, full length, GST-tagged (PHO4, Saccharomyces cerevisiae, UniProt P07270, residues 1-312)
Notes: whole 60-bp probe, lowest competitor level
Construct (chain): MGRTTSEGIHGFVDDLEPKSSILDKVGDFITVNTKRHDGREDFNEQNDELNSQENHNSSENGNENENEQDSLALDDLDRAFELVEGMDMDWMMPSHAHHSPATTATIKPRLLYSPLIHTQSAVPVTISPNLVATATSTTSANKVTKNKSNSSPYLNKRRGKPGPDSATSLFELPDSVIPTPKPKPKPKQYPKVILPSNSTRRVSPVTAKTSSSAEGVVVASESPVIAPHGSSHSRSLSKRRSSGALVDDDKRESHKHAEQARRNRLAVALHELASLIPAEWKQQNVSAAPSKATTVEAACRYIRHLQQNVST
GGTCATTTCTGACAACACGTGTTTTCTGCCACTGCT: 17100 a.u.
TGCTACTGCTGCTGTTGTGTGACAGGAAACGCGTTT: 4700 a.u.
CGATTTCAGAATCACCACGGGATTGCCAACCCAACA: 6680 a.u.
CGTCCTAGTGATTGTCACAAGACTTCCATGAGGAAG: 4310 a.u.
CATACCCAACCTTGCGCGGTGGGTGAAGATATTTGT: 4290 a.u.
TATATATGCATTCACCACGTTCCCGTTAGTCAAACG: 12600 a.u.
TATATTGTTTGTTTGCACGTTTGATAAGTCCCTTAG: 10100 a.u.
CTTTCCCGATCTTGTCTGGTGGGTGTAGCACATTTG: 4720 a.u.
CTTTTCCTTGTTATCCTCGTGTGTTAAATAGATAAT: 11400 a.u.
TGGGGATGATGATAGTCCGTGACGGTTGCCAGGGAA: 4380 a.u.
AGTTAAAACCAGATATGCGTGGGACATAGTAGGGTG: 9560 a.u.
ACTTTTTCCACTACTCTCGTGGCCGGGAAGACCTGC: 10500 a.u.
AGTCACTATGATGAGGATAATACCATGAAGAAAAAT: 4270 a.u.
GGTGCGCCATTATCGGTTGTGATGAACTACTGGTTG: 3950 a.u.
AGTGTCTGGGATGCGCTCGTGACGGTCGGCAGAGCA: 7930 a.u.
AACTTGCAAGGCTGTCCCGTGTCCTTCCTAATGGGT: 7920 a.u.
CATACCCAACCTTGATGTGTGGGTGAAGATATTTGT: 5580 a.u.
TCCCATGCAAACAAGCATGTGATATCATTGCCAAGT: 10500 a.u.
AAATTACTAAGTTTTCACGTGCAGTACCCCGTATGA: 11600 a.u.

Sample 3 — technique: RNA Bind-n-Seq; molecule type: RNA; sample: in vitro; tested at: 365 nM; reference: no-protein control; reading: higher = stronger binding; endpoint: RBNS enrichment (R)
Target: RNA binding protein fox-1 homolog 2, RRM domain, GST-SBP tag (RBFOX2, Homo sapiens, UniProt O43251-10, residues 100-194)
Notes: natural RNA segment, single round, ends assumed
All sequences stand within: GGGAGUUCUACAGUCCGACGAUC … UGGAAUUCUCGGGUGCCAA
Target sequence (chain): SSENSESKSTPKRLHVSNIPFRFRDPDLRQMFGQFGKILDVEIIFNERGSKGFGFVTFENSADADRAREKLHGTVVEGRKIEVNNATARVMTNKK
GCCUUCACAGAAUGAUGGCACCUUCCUAAACCCUCAUGGGUGGUGUCUGAGAGGCGUGAAGGGCCUGGAGCCACUCUGCUAGAAGAGACCAAUAAAGGGCAGGUGUGGAA: 1.76
UAUGUAUAUAUGUGAUGUUUUCAUAUAUAUAUGUGUGUGUGUUUAAAUUUUGUAUCAUCAGGACUGACACCCAAUUUGACACUUUUUGUAUCUAGAAGACCCUCCAAAAA: 0.632
ACAGCAGGGAAGCGGGAGGAGCUGAGAACUAUUAGAAGUUCCUAUUAUUUAUAAAUUCCACCCAAAGUGGACAGAGUCAGGUGCCAGACCUGAUCUGAAGUGCACCAAGG: 0.819
AAAGGGAACUCAAAACUCUUCCACAUUCUUCCCGAGGAAAUCGACGACGUCCAUCCGUCCCACAGAGUGGGACCGACCGCCCCUGCUGCUCCAGCCAGGGCCCCUGCGCU: 0.286
UCCUGCACAGCACAGGAAGGCUCCACUCCAUGAAGGAGUGCAUUUAGAAUGGCAUCCUGGUCCUGGAUGCAGAUUCUCAAGUAAAAUUGCUGUUAAAUUUCUUCAAGUCC: 0.34
CAUGUAUUUGCUACAAAGUAUUGUACUUGUCUCAAUGGGAAUGGUGUAAAAAACAAAAGGCCUUAUGUGAUCUGUAUCAUAGUUAAUAAAUGAAUCUUGUAAAAAACCAA: 0.356
UGCUGACCUUGUGUGACCAGAGAUUUAAAGAUGAAAAAAACAAUAAAUGUGUUUACUUCUGCACCACUCUCAGAUGGAUAUGUUUUUGGCAGCGUGGUCCUCAGCUCCUG: 0.964
AAAUUAUGGAGGUUCCUUAGUGCUCAAUAAUAUAAGACCUGGUGUUAUUAGAACGAGUCUUUCUUAUAAACUAACAGAGCAGGUAUAUGCCUGUUAGACCUUAGCUGUGG: 0.799

Sample 4 — technique: universal PBM; molecule type: double-stranded DNA, one strand shown; sample: in vitro; tested at: not given; reading: higher = stronger binding; endpoint: E-score
Target: Sal-like protein 4, full length isoform B (SALL4, Homo sapiens, UniProt Q9UJQ4-2, residues 1-616)
Notes: 8-mer, flanks averaged, mean of replicates
Construct (chain): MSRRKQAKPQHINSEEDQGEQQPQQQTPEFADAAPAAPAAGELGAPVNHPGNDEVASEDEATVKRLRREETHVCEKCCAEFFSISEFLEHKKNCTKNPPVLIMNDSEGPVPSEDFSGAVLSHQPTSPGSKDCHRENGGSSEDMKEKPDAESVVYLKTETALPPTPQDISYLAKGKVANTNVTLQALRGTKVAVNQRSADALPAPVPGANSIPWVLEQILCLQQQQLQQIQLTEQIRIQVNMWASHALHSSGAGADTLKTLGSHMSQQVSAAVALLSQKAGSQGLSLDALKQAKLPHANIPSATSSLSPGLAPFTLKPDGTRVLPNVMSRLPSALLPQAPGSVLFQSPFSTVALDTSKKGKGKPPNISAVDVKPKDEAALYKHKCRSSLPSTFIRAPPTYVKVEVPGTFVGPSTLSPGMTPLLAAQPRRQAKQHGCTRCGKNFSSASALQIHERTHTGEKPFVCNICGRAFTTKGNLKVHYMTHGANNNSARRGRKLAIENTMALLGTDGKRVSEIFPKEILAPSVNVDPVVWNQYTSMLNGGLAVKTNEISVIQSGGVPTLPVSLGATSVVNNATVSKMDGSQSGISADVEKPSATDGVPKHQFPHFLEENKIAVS
ATGGCTTC: 0.11
AGGGTAGA: -0.143
CGATATCC: -0.0633
ATCCTCAG: -0.053
GGGCCGTA: -0.199
ACCGGTCT: -0.292
ACGCGTTA: -0.0638
CGAGAAAC: -0.085
GCGTTGAC: -0.192
AGACATTG: 0.042
GATAAGCA: 0.132
ACAACGAG: 0.128
GTTGAAAC: 0.0825
TCACCAGA: -0.176
ACGTGGAC: -0.15
AAGACTAT: 0.144
GCAGTTAA: 0.0563
CATTTTCG: 0.0708
CCTGCCTC: -0.273
AATAACTA: 0.336
GATACAAC: 0.108
ACTCTCAG: -0.0364
AAGGGGCA: -0.149
GATGCAGA: -0.0603
AGGTCCCC: -0.391

Repeated from above (sample 4):
GCAGTTAA: 0.0563
CATTTTCG: 0.0708
CCTGCCTC: -0.273
AATAACTA: 0.336
